Assay results from different studies.
Numbers after ± are the reported error.
14-3-3 protein epsilon: 14-3-3 protein epsilon (Homo sapiens, UniProt P62258)
Chain of UniProt P62258 (whole entry, looked up): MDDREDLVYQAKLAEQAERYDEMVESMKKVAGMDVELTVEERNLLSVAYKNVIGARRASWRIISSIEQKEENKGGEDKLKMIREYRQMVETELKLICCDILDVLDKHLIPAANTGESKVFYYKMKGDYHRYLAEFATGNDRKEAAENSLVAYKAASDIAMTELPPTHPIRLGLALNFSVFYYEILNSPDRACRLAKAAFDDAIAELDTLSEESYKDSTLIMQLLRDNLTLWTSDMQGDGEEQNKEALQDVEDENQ
Chymotrypsin-C S216A: Chymotrypsin-C (Homo sapiens, UniProt Q99895, S216A)
Chain of UniProt Q99895 (whole entry, unmodified, looked up): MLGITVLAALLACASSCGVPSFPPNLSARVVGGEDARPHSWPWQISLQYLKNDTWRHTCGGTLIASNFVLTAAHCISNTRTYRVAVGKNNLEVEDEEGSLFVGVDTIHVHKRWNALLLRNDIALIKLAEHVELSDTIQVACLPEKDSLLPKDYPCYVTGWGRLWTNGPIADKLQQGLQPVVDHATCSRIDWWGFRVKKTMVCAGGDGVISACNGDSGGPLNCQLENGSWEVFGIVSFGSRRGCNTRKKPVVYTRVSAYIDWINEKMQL
Magi2: Membrane-associated guanylate kinase, WW and PDZ domain-containing protein 2 (Magi2, Mus musculus, UniProt Q9WVQ1)
Chain of UniProt Q9WVQ1 (whole entry, looked up): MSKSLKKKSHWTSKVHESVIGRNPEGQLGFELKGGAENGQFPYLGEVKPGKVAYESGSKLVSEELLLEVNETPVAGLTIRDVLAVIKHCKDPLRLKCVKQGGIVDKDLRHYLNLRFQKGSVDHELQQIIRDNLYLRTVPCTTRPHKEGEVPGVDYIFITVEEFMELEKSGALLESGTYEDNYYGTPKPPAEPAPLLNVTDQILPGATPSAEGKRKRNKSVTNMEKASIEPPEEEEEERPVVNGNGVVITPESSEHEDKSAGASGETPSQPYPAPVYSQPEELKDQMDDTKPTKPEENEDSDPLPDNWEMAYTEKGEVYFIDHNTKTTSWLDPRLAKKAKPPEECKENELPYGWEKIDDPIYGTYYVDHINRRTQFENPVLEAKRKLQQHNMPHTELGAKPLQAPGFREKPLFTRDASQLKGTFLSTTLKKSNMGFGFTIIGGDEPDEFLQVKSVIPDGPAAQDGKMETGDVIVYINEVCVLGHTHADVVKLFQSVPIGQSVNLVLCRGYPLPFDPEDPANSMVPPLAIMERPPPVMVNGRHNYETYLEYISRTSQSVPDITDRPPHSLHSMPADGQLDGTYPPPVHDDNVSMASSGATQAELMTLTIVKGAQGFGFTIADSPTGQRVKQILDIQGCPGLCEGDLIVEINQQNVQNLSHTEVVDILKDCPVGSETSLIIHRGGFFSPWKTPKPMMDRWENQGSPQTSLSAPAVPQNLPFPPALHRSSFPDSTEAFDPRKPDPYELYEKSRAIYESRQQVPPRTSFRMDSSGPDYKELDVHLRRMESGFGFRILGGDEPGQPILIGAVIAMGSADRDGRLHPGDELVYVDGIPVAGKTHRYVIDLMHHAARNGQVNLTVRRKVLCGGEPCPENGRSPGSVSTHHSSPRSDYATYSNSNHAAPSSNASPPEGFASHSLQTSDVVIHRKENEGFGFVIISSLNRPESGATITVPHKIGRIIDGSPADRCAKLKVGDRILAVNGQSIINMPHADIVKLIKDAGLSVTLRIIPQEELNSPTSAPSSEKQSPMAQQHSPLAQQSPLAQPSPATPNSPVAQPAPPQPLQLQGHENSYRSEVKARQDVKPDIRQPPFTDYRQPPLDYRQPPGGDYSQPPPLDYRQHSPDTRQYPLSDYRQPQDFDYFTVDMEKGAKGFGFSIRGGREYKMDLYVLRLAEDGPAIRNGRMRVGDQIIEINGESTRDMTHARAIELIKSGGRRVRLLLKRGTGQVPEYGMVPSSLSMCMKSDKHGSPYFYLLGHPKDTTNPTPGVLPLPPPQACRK
Chain of UniProt P09619 (whole entry, looked up): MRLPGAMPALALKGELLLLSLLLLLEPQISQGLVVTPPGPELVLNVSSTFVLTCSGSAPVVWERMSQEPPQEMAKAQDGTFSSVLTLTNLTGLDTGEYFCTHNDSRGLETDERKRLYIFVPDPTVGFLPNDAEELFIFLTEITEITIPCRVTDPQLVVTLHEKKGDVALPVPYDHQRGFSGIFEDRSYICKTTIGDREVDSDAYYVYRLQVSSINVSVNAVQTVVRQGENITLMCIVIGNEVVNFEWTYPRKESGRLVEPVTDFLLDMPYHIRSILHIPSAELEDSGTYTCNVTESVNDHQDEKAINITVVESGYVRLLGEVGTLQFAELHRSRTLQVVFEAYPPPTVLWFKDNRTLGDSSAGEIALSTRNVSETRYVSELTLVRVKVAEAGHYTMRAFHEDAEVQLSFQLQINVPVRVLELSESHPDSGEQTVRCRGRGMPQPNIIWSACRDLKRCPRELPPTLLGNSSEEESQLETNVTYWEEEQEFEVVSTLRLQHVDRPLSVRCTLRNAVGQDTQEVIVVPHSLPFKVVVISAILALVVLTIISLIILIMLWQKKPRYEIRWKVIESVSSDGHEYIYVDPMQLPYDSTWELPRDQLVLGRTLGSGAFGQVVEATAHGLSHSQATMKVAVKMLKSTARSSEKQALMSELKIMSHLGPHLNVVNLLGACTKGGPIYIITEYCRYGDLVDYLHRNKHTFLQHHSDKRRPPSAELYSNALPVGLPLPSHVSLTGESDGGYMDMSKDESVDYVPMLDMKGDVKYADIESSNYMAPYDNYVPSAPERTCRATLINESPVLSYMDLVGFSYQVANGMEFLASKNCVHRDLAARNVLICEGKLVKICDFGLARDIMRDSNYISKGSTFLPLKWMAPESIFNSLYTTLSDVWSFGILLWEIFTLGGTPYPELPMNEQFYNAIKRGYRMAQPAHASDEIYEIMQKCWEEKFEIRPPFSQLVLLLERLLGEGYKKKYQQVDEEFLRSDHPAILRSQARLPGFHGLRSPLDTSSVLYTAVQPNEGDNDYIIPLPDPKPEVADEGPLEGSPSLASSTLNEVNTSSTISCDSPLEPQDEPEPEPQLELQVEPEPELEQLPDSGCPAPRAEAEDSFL
Chain of UniProt P53299 (whole entry, looked up): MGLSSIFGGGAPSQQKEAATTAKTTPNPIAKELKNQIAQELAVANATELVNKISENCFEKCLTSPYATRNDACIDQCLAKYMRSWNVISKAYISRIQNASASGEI
Chain of UniProt Q12884 (whole entry, looked up): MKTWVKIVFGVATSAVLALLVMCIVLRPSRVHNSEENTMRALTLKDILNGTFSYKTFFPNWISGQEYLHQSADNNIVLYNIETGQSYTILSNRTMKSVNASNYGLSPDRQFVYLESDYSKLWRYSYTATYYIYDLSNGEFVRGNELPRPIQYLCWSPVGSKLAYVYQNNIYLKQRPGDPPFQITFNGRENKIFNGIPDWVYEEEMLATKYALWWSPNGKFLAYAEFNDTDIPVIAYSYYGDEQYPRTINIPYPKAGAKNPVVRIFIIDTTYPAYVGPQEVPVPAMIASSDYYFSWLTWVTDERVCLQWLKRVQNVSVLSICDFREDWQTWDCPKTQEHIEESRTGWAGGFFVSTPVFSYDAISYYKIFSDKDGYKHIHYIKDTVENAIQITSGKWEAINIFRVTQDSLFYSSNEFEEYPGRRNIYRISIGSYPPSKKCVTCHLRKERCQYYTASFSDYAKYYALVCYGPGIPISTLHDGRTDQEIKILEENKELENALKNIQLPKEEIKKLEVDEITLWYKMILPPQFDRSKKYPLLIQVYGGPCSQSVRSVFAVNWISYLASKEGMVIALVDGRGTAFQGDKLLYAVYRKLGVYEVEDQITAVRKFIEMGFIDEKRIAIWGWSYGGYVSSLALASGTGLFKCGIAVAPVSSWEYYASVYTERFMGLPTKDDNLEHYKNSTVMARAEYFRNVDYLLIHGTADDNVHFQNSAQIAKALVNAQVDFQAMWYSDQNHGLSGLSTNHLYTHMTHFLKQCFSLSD
Chain of UniProt P00519 (whole entry, looked up): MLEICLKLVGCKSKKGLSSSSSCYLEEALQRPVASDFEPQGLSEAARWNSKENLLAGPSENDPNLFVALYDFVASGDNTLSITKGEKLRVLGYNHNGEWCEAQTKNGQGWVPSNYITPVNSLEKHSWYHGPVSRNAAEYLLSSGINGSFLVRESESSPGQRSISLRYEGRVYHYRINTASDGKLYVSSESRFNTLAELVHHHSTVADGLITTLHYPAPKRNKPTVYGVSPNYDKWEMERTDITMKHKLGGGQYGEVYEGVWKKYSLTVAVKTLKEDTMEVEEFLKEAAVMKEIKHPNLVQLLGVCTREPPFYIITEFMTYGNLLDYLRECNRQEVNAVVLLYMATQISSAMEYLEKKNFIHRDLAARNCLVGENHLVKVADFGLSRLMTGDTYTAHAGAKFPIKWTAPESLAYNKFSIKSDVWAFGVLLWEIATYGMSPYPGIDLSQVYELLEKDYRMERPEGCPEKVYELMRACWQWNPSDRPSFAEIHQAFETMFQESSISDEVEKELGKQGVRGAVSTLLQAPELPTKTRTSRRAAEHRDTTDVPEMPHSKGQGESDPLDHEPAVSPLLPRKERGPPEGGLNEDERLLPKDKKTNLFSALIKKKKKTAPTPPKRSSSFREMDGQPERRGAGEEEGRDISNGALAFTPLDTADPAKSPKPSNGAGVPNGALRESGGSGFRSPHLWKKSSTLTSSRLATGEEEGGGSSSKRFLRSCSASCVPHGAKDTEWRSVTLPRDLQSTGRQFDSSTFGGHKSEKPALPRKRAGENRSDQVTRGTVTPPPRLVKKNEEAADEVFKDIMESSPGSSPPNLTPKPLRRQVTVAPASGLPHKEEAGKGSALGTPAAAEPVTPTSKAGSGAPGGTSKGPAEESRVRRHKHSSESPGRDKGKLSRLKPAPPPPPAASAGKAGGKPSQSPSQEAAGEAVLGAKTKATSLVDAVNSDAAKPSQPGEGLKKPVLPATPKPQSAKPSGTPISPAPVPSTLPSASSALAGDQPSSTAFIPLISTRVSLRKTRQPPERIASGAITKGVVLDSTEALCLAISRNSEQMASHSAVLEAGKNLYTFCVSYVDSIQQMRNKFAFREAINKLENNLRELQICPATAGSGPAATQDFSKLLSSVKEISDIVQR
Chain of UniProt P57744 (whole entry, looked up): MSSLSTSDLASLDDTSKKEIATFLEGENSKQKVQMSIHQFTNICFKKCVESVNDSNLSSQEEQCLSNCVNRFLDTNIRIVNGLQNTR

| SMILES | target | test | test system | setting | Kd [nM] |
| --- | --- | --- | --- | --- | --- |
| CC[C@H](C)[C@H](NC(=O)[C@H](CO)NC(=S)Nc1ccc2c(c1)C(=O)OC21c2ccc(O)cc2Oc2cc(O)ccc21)C(=O)N[C@@H](CCC(=O)O)C(=O)N[C@@H](CCCCN)C(=O)NCC(=O)NCC(=O)N[C@@H](CCP(=O)(O)O)C(=O)N[C@@H](CC(C)C)C(=O)N1CCC[C@H]1C(=O)N[C@@H](CCCCN)C(=O)N[C@H](C(=O)N[C@@H](Cc1c[nH]c2ccccc12)C(=O)N[C@@H](CC(C)C)C(=O)N[C@H](C(=O)N1CCC[C@H]1C(=O)N[C@@H](CCCNC(=N)N)C(=O)O)C(C)C)C(C)C | 14-3-3 protein eta (Homo sapiens, UniProt Q04917) | binding, fluorescence anisotropy |  | pH 7.5, FITC-labelled phosphopeptide titration | 46600 |
| CSCC[C@H](NC(=O)CNC(=O)[C@H](CCCNC(=N)N)NC(=O)[C@H](C)NC(=O)[C@@H](NC(=O)[C@H](CCC(N)=O)NC(=O)[C@H](Cc1ccc(OP(=O)(O)O)cc1)NC(=O)[C@H](C)NC(=O)[C@H](CS)NC(=O)[C@H](CO)NC(=O)[C@@H](NC(=O)[C@H](CC(C)C)NC(=O)[C@H](CC(=O)O)NC(=O)[C@H](CCCCN)NC(=O)[C@H](CO)NC(=O)[C@H](CO)NC(=O)c1ccc2c(c1)C(=O)OC21c2ccc(N(C)C)cc2Oc2cc(N(C)C)ccc21)C(C)C)C(C)C)C(=O)N[C@@H](CCC(=O)O)C(=O)N[C@@H](CC(=O)O)C(=O)O | Tyrosine-protein kinase ABL1, SH2 domain (ABL1, Homo sapiens, UniProt P00519) | binding |  |  | 327 |
| C=CC[C@H]1OC(=O)CCNC(=O)[C@H](C)N(C)C(=O)[C@H]([C@@H](C)CC)N(C)C(=O)[C@H]([C@@H](C)CC)NC(=O)[C@@H]2[C@@H](C)CCN2C1=O | Platelet-derived growth factor receptor beta, extracellular domain (PDGFRB, Homo sapiens, UniProt P09619) | SPR |  | 30 °C, extracellular domain immobilised | 8610 |
| CC(C)C[C@H](NC(=O)[C@@H]1CCCN1C(=O)[C@H](CCCCN)NC(=O)[C@@H](N)CO)C(=O)N1CCC[C@H]1C(=O)N[C@@H](CCC(=O)O)C(=O)N[C@H](C(=O)N[C@H](C(=O)N[C@@H](CC(=O)O)C(=O)N[C@@H](CCC(=O)O)C(=O)N[C@@H](Cc1ccc(O)cc1)C(=O)NCC(=O)NCCOCCOCCOCCOCCOCCOCCOCCOCCOCCOCCOCCOCCC(=O)N[C@@H](CCCCNC(=O)CC[C@H](C(=O)O)N1CCN(CC(=O)O)CCN(CC(=O)O)CC1)C(=O)N1CCN(CCCN(C)c2ccc3nccc(C(=O)NCC(=O)N4CC(F)(F)C[C@H]4C#N)c3c2)CC1)[C@@H](C)O)C(C)C [copper-64 labelled] | FAP (Homo sapiens, UniProt Q12884) | binding, 64Cu radioligand saturation | HT-1080 expressing hFAP | 1 h, 37 °C, together with: FAPI-04 1 µM for nonspecific | 5.11 |
| CC(=O)N[C@@H](CCCNC(=N)N)C(=O)N[C@H](C(=O)N[C@@H](CCCCN)C(=O)N[C@@H](CO)C(=O)N[C@@H](CCCNC(=N)N)C(=O)N[C@H](C(=O)N[C@@H](Cc1c[nH]c2ccccc12)C(=O)N[C@@H](C)C(=O)N[C@H](C(N)=O)C(C)C)[C@@H](C)OP(=O)(O)O)[C@@H](C)O | 14-3-3 protein epsilon | binding, SPR |  |  | 230 |
| O=C(N[C@@H]1c2ccccc2C[C@H]1N1CCCC1)c1ccc(-c2ccnc3[nH]ccc23)nc1 | Tyrosine-protein kinase JAK3, JH1 (JAK3, Homo sapiens, UniProt P52333) | binding, competition with immobilised ligand |  |  | 51.5 |
| CC(=O)N[C@@H](CCCNC(=N)N)C(=O)N[C@H](C(=O)N[C@@H](CCCCN)C(=O)N[C@@H](CO)C(=O)N[C@@H](CCCNC(=N)N)C(=O)N[C@H](C(=O)N[C@@H](Cc1c[nH]c2ccccc12)C(=O)N[C@@H](C)C(=O)N1Cc2ccccc2C[C@H]1C(N)=O)[C@@H](C)OP(=O)(O)O)[C@@H](C)O | 14-3-3 protein epsilon | binding, SPR |  |  | 33.7 |
| CC[C@H](C)[C@H](NC(=O)[C@H](Cc1c[nH]cn1)NC(=O)[C@H](CC(N)=O)NC(=O)[C@H](CC(C)C)NC(=O)[C@@H](NC(=O)[C@@H](NC(=O)[C@@H](N)CCCCN)[C@@H](C)O)C(C)C)C(=O)N[C@H](C(=O)N[C@@H](CCCCN)C(=O)N[C@@H](CCCNC(=N)N)C(=O)NCC(=O)N1CCC[C@H]1C(=O)N[C@@H](Cc1ccccc1)C(=O)N[C@@H](CC(C)C)C(=O)O)[C@@H](C)O | TIM13/TIM8 (Saccharomyces cerevisiae, UniProt P53299+P57744) | binding, SPR |  | pH 7.4, 25 °C, with 63 µM compound, together with: peptide 91-103 | 350000 |
| CSCC[C@@H]1NC(=O)[C@H](Cc2ccccc2)NC(=O)[C@H]([C@@H](C)O)NC(=O)[C@@H]2CSSC[C@@H]3NC(=O)[C@H]([C@@H](C)O)NC(=O)[C@H](CC(N)=O)NC(=O)[C@H](CSSC[C@@H](C(=O)N[C@@H](CC(=O)O)C(=O)N[C@@H](CCC(N)=O)C(=O)O)NC(=O)[C@H](CC(C)C)NC1=O)NC(=O)[C@H](CCCCN)NC(=O)[C@H](CC(=O)O)NC(=O)[C@H](CCCCN)NC(=O)[C@H](Cc1ccccc1)NC(=O)[C@H]([C@@H](C)O)NC(=O)[C@H]([C@@H](C)O)NC(=O)CNC(=O)[C@@H]1CCCN1C(=O)[C@H](CCC(=O)O)NC(=O)[C@@H](NC(=O)[C@@H](NC(=O)[C@@H](NC(=O)[C@H](CCC(=O)O)NC(=O)[C@H](CO)NC(=O)CN)C(C)C)[C@@H](C)O)CSSC[C@H](NC(=O)[C@H](CCCNC(=N)N)NC3=O)C(=O)NCC(=O)N[C@@H](CO)C(=O)N[C@@H](CC(=O)O)C(=O)NCC(=O)N[C@@H](CCCCN)C(=O)N[C@@H](CO)C(=O)N[C@@H](C)C(=O)N[C@@H](Cc1ccc(O)cc1)C(=O)N2 | Chymotrypsin-C S216A | competitive fluorescence polarization |  | 24 h, pH 8.0, together with: FITC-labelled tracer | 6.38 ± 1.02 |
| CC(C)C[C@H](NC(=O)[C@H](CO)NC(=O)[C@@H]1CCCN1C(=O)[C@H](CCC(N)=O)NC(=O)[C@@H](NC(=O)[C@H](C)NC(=O)[C@H](CCCCN)NC(=O)[C@H](CC(C)C)NC(=O)[C@H](Cc1ccc(O)cc1)NC(=O)[C@H](COP(=O)(O)O)NC(=O)[C@H](Cc1ccccc1)NC(=O)[C@H](CCCNC(=N)N)NC(=O)[C@H](CCCNC(=N)N)NC(=O)[C@H](C)NC(=O)[C@H](C)N)[C@@H](C)O)C(=O)O | Magi2 | ITC |  | pH 8.0, 25 °C, together with: tandem peptide | 90 ± 10 |
| CC(C)C[C@@H]1NC(=O)[C@H](CC(C)C)NC(=O)[C@H](CC(C)C)NC(=O)[C@H]([C@@H](C)O)NC(=O)[C@@H]2CSSC[C@@H]3NC(=O)[C@H]([C@@H](C)O)NC(=O)[C@H](CC(N)=O)NC(=O)[C@H](CSSC[C@@H](C(=O)N[C@H](C(=O)N[C@@H](CCC(N)=O)C(=O)O)C(C)C)NC1=O)NC(=O)[C@H](CCCCN)NC(=O)[C@H](CC(=O)O)NC(=O)[C@H](CCCCN)NC(=O)[C@H](Cc1ccccc1)NC(=O)[C@H]([C@@H](C)O)NC(=O)[C@H]([C@@H](C)O)NC(=O)CNC(=O)[C@@H]1CCCN1C(=O)[C@H](CCC(=O)O)NC(=O)[C@@H](NC(=O)[C@@H](NC(=O)[C@@H](NC(=O)[C@H](CCC(=O)O)NC(=O)[C@H](CO)NC(=O)CN)C(C)C)[C@@H](C)O)CSSC[C@H](NC(=O)[C@H](CCCNC(=N)N)NC3=O)C(=O)NCC(=O)N[C@@H](CO)C(=O)N[C@@H](CC(=O)O)C(=O)NCC(=O)N[C@@H](CCCCN)C(=O)N[C@@H](CO)C(=O)N[C@@H](C)C(=O)N[C@@H](Cc1c[nH]c3ccccc13)C(=O)N2 | Chymotrypsin-C S216A | competitive fluorescence polarization |  | 24 h, pH 8.0, together with: FITC-labelled tracer | 23.1 ± 3.16 |
| CC(=O)NCCCC[C@H](NC(=O)[C@@H](NC(=O)CNC(=O)CNC(=O)[C@@H](NC(=O)[C@H](C)N)[C@@H](C)O)C(C)C)C(=O)N[C@@H](CCCCN)C(=O)N1CCC[C@H]1C(=O)N[C@@H](Cc1c[nH]cn1)C(=O)N[C@@H](CCCNC(=N)N)C(=O)N[C@@H](Cc1ccc(O)cc1)C(=O)O | YEATS domain-containing protein 4, YEATS domain (Homo sapiens, UniProt O95619) | isothermal titration calorimetry |  | pH 7.6, 25 °C, together with: histone peptide | 460000 |
| CC(C)C[C@@H]1NC(=O)[C@H](CC(C)C)NC(=O)[C@H](CC(C)C)NC(=O)[C@H](Cc2c[nH]c3ccccc23)NC(=O)[C@@H]2CSSC[C@@H]3NC(=O)[C@H]([C@@H](C)O)NC(=O)[C@H](CC(N)=O)NC(=O)[C@H](CSSC[C@@H](C(=O)N[C@@H](CC(=O)O)C(=O)N[C@@H](CCC(N)=O)C(=O)O)NC1=O)NC(=O)[C@H](CCCCN)NC(=O)[C@H](CC(=O)O)NC(=O)[C@H](CCCCN)NC(=O)[C@H](Cc1ccccc1)NC(=O)[C@H]([C@@H](C)O)NC(=O)[C@H]([C@@H](C)O)NC(=O)CNC(=O)[C@@H]1CCCN1C(=O)[C@H](CCC(=O)O)NC(=O)[C@@H](NC(=O)[C@@H](NC(=O)[C@@H](NC(=O)[C@H](CCC(=O)O)NC(=O)[C@H](CO)NC(=O)CN)C(C)C)[C@@H](C)O)CSSC[C@H](NC(=O)[C@H](CCCNC(=N)N)NC3=O)C(=O)NCC(=O)N[C@@H](CO)C(=O)N[C@@H](CC(=O)O)C(=O)NCC(=O)N[C@@H](CCCCN)C(=O)N[C@@H](CO)C(=O)N[C@@H](C)C(=O)N[C@@H](Cc1c[nH]c3ccccc13)C(=O)N2 | Chymotrypsin-C S216A | competitive fluorescence polarization |  | 24 h, pH 8.0, together with: FITC-labelled tracer | 24 ± 3.34 |
| CC(C)C[C@H](NC(=O)[C@H](CO)NC(=O)[C@@H]1CCCN1C(=O)[C@H](CCC(N)=O)NC(=O)[C@@H](NC(=O)[C@H](C)NC(=O)[C@H](CCCCN)NC(=O)[C@H](CC(C)C)NC(=O)[C@H](Cc1ccc(O)cc1)NC(=O)[C@H](COP(=O)(O)O)NC(=O)[C@H](CCC(=O)O)NC(=O)[C@@H](NC(=O)[C@H](CCCNC(=N)N)NC(=O)[C@H](C)NC(=O)[C@H](C)N)C(C)C)[C@@H](C)O)C(=O)O | Magi2 | ITC |  | pH 8.0, 25 °C, together with: tandem peptide | 6000 ± 600 |

A few entries again:
| SMILES | target | test | test system | setting | Kd [nM] |
| --- | --- | --- | --- | --- | --- |
| CC(=O)NCCCC[C@H](NC(=O)[C@@H](NC(=O)CNC(=O)CNC(=O)[C@@H](NC(=O)[C@H](C)N)[C@@H](C)O)C(C)C)C(=O)N[C@@H](CCCCN)C(=O)N1CCC[C@H]1C(=O)N[C@@H](Cc1c[nH]cn1)C(=O)N[C@@H](CCCNC(=N)N)C(=O)N[C@@H](Cc1ccc(O)cc1)C(=O)O | YEATS domain-containing protein 4, YEATS domain (Homo sapiens, UniProt O95619) | isothermal titration calorimetry |  | pH 7.6, 25 °C, together with: histone peptide | 460000 |
